Measurements of several laboratories.
Parts stem from different laboratories: compare values within a part only. Values joined by “and” are separate records of one study, mostly repeats; a detail may differ.
Sequence of UniProt Q06418 (whole entry, looked up): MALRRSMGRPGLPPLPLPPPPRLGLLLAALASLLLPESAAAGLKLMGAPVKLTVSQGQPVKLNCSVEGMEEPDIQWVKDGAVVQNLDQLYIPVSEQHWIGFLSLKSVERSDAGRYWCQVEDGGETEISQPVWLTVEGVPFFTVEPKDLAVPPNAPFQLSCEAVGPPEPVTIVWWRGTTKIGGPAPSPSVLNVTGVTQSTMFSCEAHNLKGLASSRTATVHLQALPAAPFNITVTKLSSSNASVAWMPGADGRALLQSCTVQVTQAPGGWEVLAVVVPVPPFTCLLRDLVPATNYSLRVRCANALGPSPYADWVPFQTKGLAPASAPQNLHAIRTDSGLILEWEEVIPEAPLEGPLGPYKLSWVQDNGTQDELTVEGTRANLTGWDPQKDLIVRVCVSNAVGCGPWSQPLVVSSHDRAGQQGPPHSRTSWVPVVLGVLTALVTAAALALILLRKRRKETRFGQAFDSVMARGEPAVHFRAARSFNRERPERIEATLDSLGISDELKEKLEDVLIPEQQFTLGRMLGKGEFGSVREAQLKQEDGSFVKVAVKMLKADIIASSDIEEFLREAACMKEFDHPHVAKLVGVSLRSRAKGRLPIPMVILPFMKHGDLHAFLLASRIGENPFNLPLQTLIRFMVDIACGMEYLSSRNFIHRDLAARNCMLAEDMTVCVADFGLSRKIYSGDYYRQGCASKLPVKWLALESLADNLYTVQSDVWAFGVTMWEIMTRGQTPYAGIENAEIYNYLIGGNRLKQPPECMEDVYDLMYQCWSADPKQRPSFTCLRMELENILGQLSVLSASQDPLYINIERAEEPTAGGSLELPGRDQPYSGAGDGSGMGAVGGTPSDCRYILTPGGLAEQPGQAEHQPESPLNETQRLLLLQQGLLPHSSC
Sequence of UniProt P08069 (whole entry, looked up): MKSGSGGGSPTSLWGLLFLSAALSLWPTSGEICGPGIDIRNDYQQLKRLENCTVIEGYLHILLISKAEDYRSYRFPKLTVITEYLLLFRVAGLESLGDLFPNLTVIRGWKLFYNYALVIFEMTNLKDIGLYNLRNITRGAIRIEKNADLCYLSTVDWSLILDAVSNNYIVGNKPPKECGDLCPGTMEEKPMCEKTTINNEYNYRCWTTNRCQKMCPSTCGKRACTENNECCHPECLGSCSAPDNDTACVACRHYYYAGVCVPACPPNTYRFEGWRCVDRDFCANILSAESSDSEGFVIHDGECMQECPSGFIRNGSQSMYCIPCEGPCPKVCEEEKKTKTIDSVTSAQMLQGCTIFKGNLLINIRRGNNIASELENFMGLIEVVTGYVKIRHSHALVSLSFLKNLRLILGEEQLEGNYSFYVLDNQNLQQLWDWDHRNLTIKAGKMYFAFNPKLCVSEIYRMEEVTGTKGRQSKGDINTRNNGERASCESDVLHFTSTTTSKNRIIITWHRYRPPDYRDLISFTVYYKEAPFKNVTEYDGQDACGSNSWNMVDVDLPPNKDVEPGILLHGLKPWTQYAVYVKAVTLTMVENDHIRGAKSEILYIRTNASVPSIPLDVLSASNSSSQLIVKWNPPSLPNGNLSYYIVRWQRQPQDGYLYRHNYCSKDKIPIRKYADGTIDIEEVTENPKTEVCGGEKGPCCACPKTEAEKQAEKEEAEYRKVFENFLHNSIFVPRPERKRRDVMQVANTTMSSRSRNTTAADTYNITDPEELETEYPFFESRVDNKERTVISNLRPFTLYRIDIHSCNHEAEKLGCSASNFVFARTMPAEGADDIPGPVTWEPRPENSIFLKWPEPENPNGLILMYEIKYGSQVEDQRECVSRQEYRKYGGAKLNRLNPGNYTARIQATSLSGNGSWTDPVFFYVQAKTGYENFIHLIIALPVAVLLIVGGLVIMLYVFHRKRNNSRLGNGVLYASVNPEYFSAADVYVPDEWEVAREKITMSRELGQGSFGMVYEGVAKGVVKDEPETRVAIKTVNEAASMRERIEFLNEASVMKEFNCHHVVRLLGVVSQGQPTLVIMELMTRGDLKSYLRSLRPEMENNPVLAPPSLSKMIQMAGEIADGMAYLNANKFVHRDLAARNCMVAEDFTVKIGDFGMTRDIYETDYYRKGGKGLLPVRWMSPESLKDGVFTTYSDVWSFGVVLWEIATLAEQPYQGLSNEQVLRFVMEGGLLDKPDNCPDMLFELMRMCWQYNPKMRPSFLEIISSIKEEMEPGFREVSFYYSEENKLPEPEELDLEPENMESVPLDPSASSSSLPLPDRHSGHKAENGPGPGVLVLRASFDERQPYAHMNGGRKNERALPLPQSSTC
Sequence of UniProt P23458 (whole entry, looked up): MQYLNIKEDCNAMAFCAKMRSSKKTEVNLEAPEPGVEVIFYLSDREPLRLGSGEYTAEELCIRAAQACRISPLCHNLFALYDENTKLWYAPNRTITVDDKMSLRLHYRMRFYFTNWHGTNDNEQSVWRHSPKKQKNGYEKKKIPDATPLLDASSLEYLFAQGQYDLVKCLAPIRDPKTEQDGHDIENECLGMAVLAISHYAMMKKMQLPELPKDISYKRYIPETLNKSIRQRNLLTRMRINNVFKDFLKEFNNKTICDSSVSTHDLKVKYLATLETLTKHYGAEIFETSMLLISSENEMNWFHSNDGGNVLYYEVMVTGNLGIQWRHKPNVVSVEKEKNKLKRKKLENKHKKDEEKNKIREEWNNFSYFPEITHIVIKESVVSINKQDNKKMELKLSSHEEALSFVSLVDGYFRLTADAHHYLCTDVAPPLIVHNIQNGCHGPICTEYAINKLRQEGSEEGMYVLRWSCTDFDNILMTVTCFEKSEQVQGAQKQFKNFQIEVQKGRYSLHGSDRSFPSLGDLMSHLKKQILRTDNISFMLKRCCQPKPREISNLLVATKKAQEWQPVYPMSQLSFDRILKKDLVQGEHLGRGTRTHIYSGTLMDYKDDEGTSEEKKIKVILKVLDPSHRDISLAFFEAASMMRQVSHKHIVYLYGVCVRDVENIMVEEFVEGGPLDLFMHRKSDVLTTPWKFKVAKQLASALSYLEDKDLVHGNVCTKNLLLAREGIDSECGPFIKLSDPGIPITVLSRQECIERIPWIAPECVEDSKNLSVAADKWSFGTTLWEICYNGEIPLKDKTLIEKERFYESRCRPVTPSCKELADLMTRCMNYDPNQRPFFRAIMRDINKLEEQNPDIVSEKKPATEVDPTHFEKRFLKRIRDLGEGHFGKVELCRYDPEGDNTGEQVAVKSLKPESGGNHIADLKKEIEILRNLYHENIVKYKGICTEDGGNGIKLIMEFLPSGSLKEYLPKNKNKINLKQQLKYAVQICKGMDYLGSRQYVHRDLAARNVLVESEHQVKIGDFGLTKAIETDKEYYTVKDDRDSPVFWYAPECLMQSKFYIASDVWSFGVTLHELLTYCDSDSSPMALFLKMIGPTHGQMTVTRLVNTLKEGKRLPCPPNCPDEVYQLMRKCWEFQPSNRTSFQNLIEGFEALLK
Sequence of UniProt P49760 (whole entry, looked up): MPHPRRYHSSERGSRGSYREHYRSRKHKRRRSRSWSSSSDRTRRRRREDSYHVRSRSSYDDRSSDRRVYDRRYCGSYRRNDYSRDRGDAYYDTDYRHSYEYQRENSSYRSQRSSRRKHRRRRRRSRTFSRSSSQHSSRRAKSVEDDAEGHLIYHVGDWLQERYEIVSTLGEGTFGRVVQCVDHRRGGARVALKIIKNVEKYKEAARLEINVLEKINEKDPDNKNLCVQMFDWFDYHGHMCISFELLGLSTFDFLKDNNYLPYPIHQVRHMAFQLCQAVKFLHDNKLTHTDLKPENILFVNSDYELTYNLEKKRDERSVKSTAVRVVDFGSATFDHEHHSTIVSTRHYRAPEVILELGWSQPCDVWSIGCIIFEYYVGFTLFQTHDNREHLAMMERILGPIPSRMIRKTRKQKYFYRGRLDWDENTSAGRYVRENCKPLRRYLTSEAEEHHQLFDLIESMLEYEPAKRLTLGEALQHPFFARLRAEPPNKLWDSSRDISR
Sequence of UniProt P49759 (whole entry, looked up): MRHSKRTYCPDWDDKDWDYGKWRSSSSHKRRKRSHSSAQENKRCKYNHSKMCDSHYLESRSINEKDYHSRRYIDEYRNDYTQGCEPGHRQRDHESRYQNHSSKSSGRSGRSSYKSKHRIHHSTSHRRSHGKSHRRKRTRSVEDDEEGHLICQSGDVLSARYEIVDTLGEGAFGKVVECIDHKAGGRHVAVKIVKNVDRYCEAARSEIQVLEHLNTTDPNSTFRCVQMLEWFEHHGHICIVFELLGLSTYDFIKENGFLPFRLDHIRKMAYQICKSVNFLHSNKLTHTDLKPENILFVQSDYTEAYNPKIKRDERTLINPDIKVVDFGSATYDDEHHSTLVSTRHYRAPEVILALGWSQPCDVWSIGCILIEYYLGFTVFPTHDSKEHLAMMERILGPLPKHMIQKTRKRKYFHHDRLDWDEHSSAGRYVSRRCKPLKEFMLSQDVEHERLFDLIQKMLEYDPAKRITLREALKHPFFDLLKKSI

Sample 1 — effect on: enzyme activity; action: inhibitor; concentration: 10 µM
Target: Calcium/calmodulin-dependent protein kinase type II subunit alpha (CAMK2A, Homo sapiens, UniProt Q9UQM7)
Sequence of UniProt Q9UQM7 (whole entry, looked up): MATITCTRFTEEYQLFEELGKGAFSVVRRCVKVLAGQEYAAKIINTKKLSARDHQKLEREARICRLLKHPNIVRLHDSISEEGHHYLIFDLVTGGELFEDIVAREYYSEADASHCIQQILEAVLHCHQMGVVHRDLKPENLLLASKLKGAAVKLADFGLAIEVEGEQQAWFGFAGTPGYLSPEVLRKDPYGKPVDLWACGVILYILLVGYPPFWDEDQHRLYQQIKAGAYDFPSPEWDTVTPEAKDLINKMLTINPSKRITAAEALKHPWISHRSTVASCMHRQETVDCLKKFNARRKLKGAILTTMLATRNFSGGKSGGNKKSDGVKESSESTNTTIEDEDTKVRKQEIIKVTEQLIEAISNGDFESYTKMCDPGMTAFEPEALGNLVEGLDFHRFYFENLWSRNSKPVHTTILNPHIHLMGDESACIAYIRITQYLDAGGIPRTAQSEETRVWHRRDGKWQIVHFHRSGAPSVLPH
With `Cc1ncccc1O` the inhibition was -44%.
`CC(C)(CO)[C@@H](O)C(=O)NCCC(=O)NCCSSCCNC(=O)CCNC(=O)[C@H](O)C(C)(C)CO` gave an inhibition of -33%.
For `O=C(Nc1nc(-c2cc(Cl)cs2)c(N2CCN(C3CCCCC3)CC2)s1)c1cnc(N2CCC(C(=O)O)CC2)c(Cl)c1`, the inhibition was 4%.
`Clc1ccc2c(c1)C(N1CCNCC1)=Nc1ccccc1O2` has an inhibition of -10%.
For `C[C@@H]1C[C@H]2O[C@@]3(O[C@@H]2C(C)(C)O)[C@H](O)[C@@]2(C)[C@@H]4CC[C@H]5C(C)(C)[C@@H](O[C@@H]6OC[C@@H](O)[C@H](O)[C@H]6O)CC[C@@]56C[C@@]46CC[C@]2(C)[C@@H]13`, the inhibition was 21%.
With `COC(=O)C1=CO[C@@H](C)[C@H]2CN3CCc4c([nH]c5ccccc45)[C@@H]3C[C@H]12` the inhibition was 14%.
For `O=C(O)CCC(=O)Nc1ccc(S(=O)(=O)Nc2nccs2)cc1`, the inhibition was -6%.
The inhibition of `COc1cc(C(C)=O)cc(OC)c1O` is reported as -79%.
The inhibition of `COc1cc([C@@H]2c3cc4c(cc3[C@H](O)[C@H]3COC(=O)[C@H]23)OCO4)cc(OC)c1OC` is reported as -3%.
`CCCCCCCCCCC/C=C\CCCCC(=O)O` has an inhibition of 12%.
`Oc1ccc(O)c(O)c1` gave an inhibition of -26%.
The inhibition of `O=C(/C=C/c1ccc(O)c(O)c1)O[C@@H](C(=O)O)[C@@H](O)C(=O)O` is reported as 31%.
`C[C@@H]1CC[C@@]2(OC1)O[C@H]1C[C@H]3[C@@H]4CC=C5C[C@@H](O[C@@H]6O[C@H](CO)[C@@H](O[C@@H]7O[C@H](CO)[C@@H](O)[C@H](O)[C@H]7O)[C@H](O)[C@H]6O[C@@H]6O[C@@H](C)[C@H](O)[C@@H](O)[C@H]6O)CC[C@]5(C)[C@H]4CC[C@]3(C)[C@H]1[C@@H]2C` gave an inhibition of -2%.
`O=c1cc(-c2ccc(O)c(-c3c(O)cc(O)c4c(=O)cc(-c5ccc(O)cc5)oc34)c2)oc2cc(O)cc(O)c12` has an inhibition of -146%.
`C[C@H](CCC(=O)O)[C@H]1CC[C@H]2[C@@H]3C(=O)C[C@@H]4C[C@H](O)CC[C@]4(C)[C@H]3C[C@H](O)[C@]12C` has an inhibition of -127%.
For `CCCCOC(=O)c1ccccc1Nc1cccc(C(F)(F)F)c1`, the inhibition was -3%.

Sample 2 — Compound: CCN(CC)CCCCN1c2ccccc2Oc2ccc(Cl)cc21; effect on: enzyme activity; action: inhibitor; concentration: 0.5 µM; baseline: control
For SGK2 (Homo sapiens, UniProt Q9HBY8): remaining activity read 105%.
The remaining activity was 105% (PRKCZ (Homo sapiens, UniProt Q05513)).
For TYRO3 (Homo sapiens, UniProt Q06418): remaining activity read 103%.
It gave 94.3% for remaining activity (FLT1 (Homo sapiens, UniProt P17948)).
For EPHA2 (Homo sapiens, UniProt P29317): remaining activity read 106%.
For CSNK1D (Homo sapiens, UniProt P48730): remaining activity read 105%.
It gave 105% for remaining activity (JAK1 (Homo sapiens, UniProt P23458)).
The remaining activity was 105% (CLK2 (Homo sapiens, UniProt P49760)).
The remaining activity was 97.5% (PRKCQ (Homo sapiens, UniProt Q04759)).
The remaining activity was 112% (CSNK1E (Homo sapiens, UniProt P49674)).
CAMK1 (Homo sapiens, UniProt Q14012) — remaining activity: 101%.
The remaining activity was 111% (SIK2 (Homo sapiens, UniProt Q9H0K1)).
The remaining activity was 110% (CLK1 (Homo sapiens, UniProt P49759)).
It gave 157% for remaining activity (TEC (Homo sapiens, UniProt P42680)).
It gave 102% for remaining activity (PAK6 (Homo sapiens, UniProt Q9NQU5)).
Cyclin-dependent kinase 2, with cyclin E (CDK2, Homo sapiens, UniProt P24941) — remaining activity: 89.4%.
The remaining activity was 87.7% (PAK1 (Homo sapiens, UniProt Q13153)).
RPS6KA3 (Homo sapiens, UniProt P51812) — remaining activity: 98.6%.
CAMKK1 (Homo sapiens, UniProt Q8N5S9) — remaining activity: 116%.
The remaining activity was 89.4% (IGF1R (Homo sapiens, UniProt P08069)).
MUSK (Homo sapiens, UniProt O15146) — remaining activity: 103%.
It gave 94.4% for remaining activity (MAP3K20 (Homo sapiens, UniProt Q9NYL2)).
For SRPK1 (Homo sapiens, UniProt Q96SB4): remaining activity read 97.2%.

Sample 3 — effect on: cell-free assay; method: competition with immobilised ligand; concentration: 1 µM
SMILES: O=C(Nc1cnc(Oc2ccc(F)cc2)nc1)N1CCc2ncccc2[C@@H]1c1ccc(F)cc1
The remaining binding was 100% (LRRK2 (Homo sapiens, UniProt Q5S007, G2019S)).
The remaining binding was 88% (FLT3 (Homo sapiens, UniProt P36888, N841I)).
RIPK2 (Homo sapiens, UniProt O43353) — remaining binding: 93%.
MAP4K3 (Homo sapiens, UniProt Q8IVH8) — remaining binding: 87%.
The remaining binding was 84% (CHEK1 (Homo sapiens, UniProt O14757)).
The remaining binding was 92% (MAPK3 (Homo sapiens, UniProt P27361)).
CSNK1G1 (Homo sapiens, UniProt Q9HCP0) — remaining binding: 99%.
STK35 (Homo sapiens, UniProt Q8TDR2) — remaining binding: 71%.
It gave 100% for remaining binding (ANKK1 (Homo sapiens, UniProt Q8NFD2)).
The remaining binding was 92% (STK17B (Homo sapiens, UniProt O94768)).
PRKACA (Homo sapiens, UniProt P17612) — remaining binding: 82%.
The remaining binding was 100% (IGF1R (Homo sapiens, UniProt P08069)).
It gave 76% for remaining binding (EGFR (Homo sapiens, UniProt P00533, G719C)).
TYRO3 (Homo sapiens, UniProt Q06418) — remaining binding: 100%.
The remaining binding was 100% (MAPK6 (Homo sapiens, UniProt Q16659)).
LATS1 (Homo sapiens, UniProt O95835) — remaining binding: 100%.
ALK (Homo sapiens, UniProt Q9UM73) — remaining binding: 99%.
For PIP5K1A (Homo sapiens, UniProt Q99755): remaining binding read 100%.
PKMYT1 (Homo sapiens, UniProt Q99640) — remaining binding: 80%.
The remaining binding was 100% (PTK2 (Homo sapiens, UniProt Q05397)).
It gave 63% for remaining binding (PIK3CA (Homo sapiens, UniProt P42336, E545K)).
It gave 90% for remaining binding (MAP3K7 (Homo sapiens, UniProt O43318)).
Tyrosine-protein kinase JAK1, JH2 (JAK1, Homo sapiens, UniProt P23458) — remaining binding: 96%.
It gave 99% for remaining binding (FLT3 (Homo sapiens, UniProt P36888, R834Q)).
The remaining binding was 100% (FES (Homo sapiens, UniProt P07332)).

Single results of other studies
Under “relative cell number”, `CC(C)(C)c1cnc(CSc2cnc(NC(=O)C3CCN(CCCCCSc4cccc5c4CN(C4CCC(=O)NC4=O)C5=O)CC3)s2)o1` (centres unmarked) is recorded as 0.846 and 1.05 and 0.898 (HuT78; trypan blue; concentration not given, day 0; baseline: untreated control).

Some of these lines once more (sample 2):
For CSNK1D (Homo sapiens, UniProt P48730): remaining activity read 105%.
It gave 105% for remaining activity (JAK1 (Homo sapiens, UniProt P23458)).
The remaining activity was 105% (CLK2 (Homo sapiens, UniProt P49760)).
The remaining activity was 97.5% (PRKCQ (Homo sapiens, UniProt Q04759)).
The remaining activity was 112% (CSNK1E (Homo sapiens, UniProt P49674)).
